Assay results of several laboratories.
Each numbered part is a random draw from the data of one study; scales do not carry over between parts.

Series 1
Target: RNA binding protein fox-1 homolog 2, RRM domain, GST-SBP tag (RBFOX2, Homo sapiens, UniProt O43251-10, residues 100-194)
Method: RNA Bind-n-Seq
Form: RNA
Sample: in vitro
Concentration: 365 nM
Notes: natural RNA segment, single round, ends assumed
Relative to: no-protein control
Reading: higher = stronger binding
Quantity: RBNS enrichment (R)
Constant ends, left off below: GGGAGUUCUACAGUCCGACGAUC … UGGAAUUCUCGGGUGCCAA
Construct (chain): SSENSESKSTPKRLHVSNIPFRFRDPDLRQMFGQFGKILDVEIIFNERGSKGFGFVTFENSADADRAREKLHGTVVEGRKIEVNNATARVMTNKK
GAUGAACAACAAUUCAACGUGCUUCUCUCAGUGCCUGGAGGAUGCAGCUCUCCACACGCAGGGACUUUAUUUGGGGACAUCUGUCACCUUUGGGGUUGCCAUGGCCAAUG: 0.433
GAAACUAGUAGCUAACAUUGCUUCUGGAGAGCAGAAAUAAGCAUGUCUUCUGGCUACUAAGUGAUAAAAAGAACAUUAACAACCUUUAAUUACCUUCCUAGUGGGAACUU: 0.606
GUGAUUUGCCUUUGAACUUGGUCCUAUUGAAGUUCACAAUAAGUGGAAAACAAUUUUUUCAGAGAAUGUAUUUUUGUGCAGAAUUGCACAGAAUUCUAGAGACAGCGUUG: 0.333
GGCAUAUAUAAACAUGUGUAUGUGCAAUAUAUCGAUAUAGAAUUCUGCCAAAAAUCAAGGUUUAAAAAGCUGAGGCUUGUAUUUGAUCAUGCUUUUCACCUAAAUAGCAA: 1.22
GAAAUUUCAGCUCUGAGUUUGUGCACAUGAAUACUUACUUGUGUUUACCAAAGGUCUAAGGCAUUUGGUUACUUAACCCAAAUAUCCUGAACUGUGCGUAAAGUAAUAGA: 0.296
AAGCCACCUCUCUCUUUCUUGCUAUCUUUUUUUUCUCUCUCUCUCUAUCUCAAGUUUGUGCAGGGAGAUGGUGAACUGUUUUGUCAGAACUUAAAUAGAAGAAAAAGAAA: 0.699
AAGUUGAAUAAAAAGUCACAGAGGAUGUAAAUUUUGUACAGGACUAGAAUGUAAAUGAAGCUUGCUUGGAAGGGGAAAACUUUAAAUAAAACUUUAUGUAUAAAUUCAAC: 1.61
ACCCAGUCAAAGCUCUGCCUUUCAGCCCACGUCAUACGUAGUGUCCAUCUUGUGAAGCCCUGUUGUGCCCCACAGUGUAGCCAGGCCCCCUGCAGCUAGUCAUAGUGAAG: 0.38
UAAAGCCAGUAGUGUGGCAACAGAAUAGCACAGUAUAACUCAGUUGAGACAUGACUUCAAGACUCGAGACUUGGUAGAAUCCUUUUACUUGGCCAUCUGAGUAGAAAUAG: 0.837
GCCAGCCACCGUUCCAGGUCCUGUUGAGAUCAUCAUGUAACAGGACAACAAAGUCCCUGUCCUCAUGGGGCUUAUAUUCUGAUCCAUUUCCUCAUCUAUGAAAUGAAGAU: 0.439
CAUGGACCAUAACUCUGCUAUACCAGGCAGCCAGGUAUCUAGCAAUGUAGGGGACGUCAUGUCGUUUUCAGUGACUGUCACUACCAUCCCUGCCAGUCAAGCAAUGAAUC: 0.315
AAUACAGUCUAAGUGAAGAAAAUAAAUAAAAGGAAGAGGUUUAUAACUUGCUCUAUAUCUGUACAGAUUAUAAUCAAUAAGUGCACUAUUAUUAAAUGUUUAAAGUAAGG: 6.55

Series 2
Target: Histone acetyltransferase KAT6A, winged helix 1, GST fusion (KAT6A, Homo sapiens, UniProt Q92794, residues 1-85)
Method: protein binding microarray
Form: double-stranded DNA, one strand shown
Sample: in vitro
Concentration: not given
Notes: 8-mer, flanks averaged, mean of 2 arrays, mostly near background
Relative to: not given
Reading: higher = stronger binding
Quantity: E-score
Construct (chain): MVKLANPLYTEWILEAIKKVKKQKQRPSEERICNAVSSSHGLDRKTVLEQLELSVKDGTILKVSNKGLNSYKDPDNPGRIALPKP
CTCTCCTC: -0.124
AAGTGTCT: -0.205
AAAATGCA: -0.288
CGGATGGA: -0.0552
CTGCGCAA: 0.157
CTAAATTA: 0.00362
AAACGCTA: -0.00598
AACTGATC: -0.0765
GAGCAACA: -0.139
AATGCAAC: -0.263
CCTCAGAG: -0.125
AGGTGGGC: -0.16
AAAATTTG: -0.272
CTTAACGC: 0.0882
AAGCTGCT: -0.00431
CTCAAGGA: -0.178
CTAGCCTC: -0.174
AGTAGTTG: -0.0519
AAAAAGTA: -0.00372
ACGCTGAG: 0.099
GACTCTGA: -0.129
AATCTTAG: -0.0771
CGCACCTC: 0.135
CGTGCGCC: 0.371
ATGTCAGC: -0.0266

Series 3
Target: Prothrombin, mature alpha-thrombin (F2, Homo sapiens, UniProt P00734)
Method: aptamer microarray, sandwich
Form: DNA with 2'F-ANA
Sample: in vitro
Concentration: 200 nM
Notes: whole 15-mer aptamer, many near background
Together with: Cy3 exosite-II aptamer, 400 nM
Reading: higher = stronger binding
Quantity: mean fluorescence intensity
Strand: GGTTGGTGTGGTTGG
2'F-ANA at 1 2 3 5 7 8 9 12: 183 a.u.
2'F-ANA at 1 3 4 5 7 8 9 13: 60.2 a.u.
2'F-ANA at 1 2 5 6 12 13: 85.7 a.u.
2'F-ANA at 1 2 3 7 8 10 11 12 13: 87.3 a.u.
2'F-ANA at 1 2 3 6 7 8 9 10 11 12 13: 80.9 a.u.
2'F-ANA at 1 2 3 4 5 9 10 12 13 14: 48.5 a.u.
2'F-ANA at 1 3 6 7 9 11 12: 368 a.u.
2'F-ANA at 10 14: 122 a.u.
2'F-ANA at 1 3 6 8 9 10 12 15: 98 a.u.
2'F-ANA at 4 5 6 7 8 9 12 13 14 15: 48.1 a.u.
2'F-ANA at 1 2 4 5 8 9 10 11 13: 47.2 a.u.
2'F-ANA at 1 2 3 4 12 13: 254 a.u.
2'F-ANA at 2 8 10 11 12 13 15: 127 a.u.
2'F-ANA at 1 4 6 8: 143 a.u.
2'F-ANA at 3 4 5 7 12: 214 a.u.
2'F-ANA at 1 2 3 4 6 7 8 10 12 15: 194 a.u.
2'F-ANA at 1 2 6 7 10 14 15: 48.6 a.u.
2'F-ANA at 1 3 4 10 11 15: 62.2 a.u.
2'F-ANA at 1 6 8 9 14: 108 a.u.
2'F-ANA at 1 3 5 6 7 8 10 11 12 13: 140 a.u.

Series 4
Target: RING finger protein unkempt homolog, zinc fingers 1-6, GST-SBP tag (UNK, Homo sapiens, UniProt Q9C0B0, residues 30-357)
UniProt Q9C0B0, sequence (30-357, looked up): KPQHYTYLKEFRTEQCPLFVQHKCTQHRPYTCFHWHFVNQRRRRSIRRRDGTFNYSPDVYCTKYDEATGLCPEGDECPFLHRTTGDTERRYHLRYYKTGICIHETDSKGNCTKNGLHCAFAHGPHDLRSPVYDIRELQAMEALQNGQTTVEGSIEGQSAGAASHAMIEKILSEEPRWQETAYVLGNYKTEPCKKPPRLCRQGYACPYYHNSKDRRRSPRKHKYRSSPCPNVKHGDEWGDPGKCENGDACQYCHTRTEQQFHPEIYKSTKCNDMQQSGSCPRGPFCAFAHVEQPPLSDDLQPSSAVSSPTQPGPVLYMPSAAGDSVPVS
Method: RNA Bind-n-Seq
Form: RNA
Sample: in vitro
Concentration: not given
Notes: RNA with constant flanks, ends assumed
Relative to: input RNA pool
Reading: higher = stronger binding
Quantity: bound/input enrichment
Constant ends, left off below: GGGAGUUCUACAGUCCGACGAUC … CAACAGAGGAUUGAGCAUCA
CUCUCCAGUAGAAGCUGUGAGCACACCUAACACUCCUCGAAACCUUGCUGCCUGGAAAAUCCGCAUUCCGUAUGUAGACUUUUUUGAAGAUCCCUCCUCUGAAAGGAAAGAGAAGAAGGA: 0.447 ratio
GCUUUUAAUGGAGUUAUGUUUGGAGACAGGCCACUGAAAAUAAAUCACUCCAACAAUGCAACCGUAAAACCCCCUGAGAUGACACCUCAGGCUGCAGCUAAGGAGUUAGAAGAAGUAAUG: 0.867 ratio
AAAAUUUUUGCCUUUGCCAACUCACUAGUGGAACUUCUGGCUGUGGGGUUAGAAACCUUUAACCGAGCACGCUAUAGGCAGUUUGUGAAGCGAAUUGGUUAUAUGAUCAGGAUGACUCUU: 0.341 ratio
AAACAUGGAUGUGGUGGCAUAACUUUCGGACUCUGUGUGACUAUAGCAAGAGAAUUGCAGCCGGUAAGUCCACAAGGGUUCUGAGAUAUGAGCGGCCUCCUAGAAAUGAGAAUCAACAGG: 0.198 ratio
CAACAGGCUGGCCAUGAUGAAGGGGUUCUGGAUCGUUUGGUAGAUAGGAGGGAACGGCCAUCCGAAGGUGGCCGAACAAAUUCCAAUAACAACAACAGCAAUCCAUGUUCAGAACAAGAU: 0.147 ratio
CAGCUUCGGCAGGACAUAGUUGCAGGACGUCUGCCCUGUUCCUUUGCAACCUUAGCAUUAUCCGGUUCUUACACCAUCCAGUCUGAACUGGGAGACUACGACCCAGAACUCCAUGGCGUG: 0.202 ratio
AAAGAAUGGAUAGAAUGUGCACAUGGAAUCGGUUAUACUCGGGCAGAGAAAGAGUGCAAGACCGAAUAUGAUGAUUUCGUAGAGUGUUUGCUUCGGCAGAAAACGAUGAGACGUGCAGGU: 0.325 ratio
GGGGUUCCUAGUACUGCAAUUCGGGAAAUUUCUCUAUUAAAGGAACUUCGUCAUCCAAAUACCGUCAGUCUUCAGGAUGUGCUUAUGCAGGAUUCCAGGUUAUAUCUCAUCUUUGAGUUU: 0.1 ratio
UUUAUGCACAUACUUAAAGGACAGAAAUGUCUGGUAAAGUAAUUGUUAAAUAAUGAUAUGCCGCUUUUUAACUUUUUAAAUAAAUAAGAUUUUUUAAUGUGGGUCUCCCUCAGGGUUGUU: 0.727 ratio
GGUCUCUCCAAACUGACUAUAUAUUUAUUUGUUAUUUUAAAAAUACAACUAUAUUUUGGGCCGUUUUUUUUUUUUUUUUUUUGAUAAGUUGGUGUAAGGCUAUGUGACUUGAUCAAAACA: 2.64 ratio
AGUAAAAAUCUACCAAUUCUCAGGCACCAGGGUCAGCAGUUGGCCAACAAAUUGCAGUGUCCUUUUGCCGACGUACCUACUGGUACAUAUCCUCGUAAAUUUAAUGAAUCACAAAUAAAG: 0.521 ratio

A few entries again (series 4):
GCUUUUAAUGGAGUUAUGUUUGGAGACAGGCCACUGAAAAUAAAUCACUCCAACAAUGCAACCGUAAAACCCCCUGAGAUGACACCUCAGGCUGCAGCUAAGGAGUUAGAAGAAGUAAUG: 0.867 ratio
AAAAUUUUUGCCUUUGCCAACUCACUAGUGGAACUUCUGGCUGUGGGGUUAGAAACCUUUAACCGAGCACGCUAUAGGCAGUUUGUGAAGCGAAUUGGUUAUAUGAUCAGGAUGACUCUU: 0.341 ratio
AAACAUGGAUGUGGUGGCAUAACUUUCGGACUCUGUGUGACUAUAGCAAGAGAAUUGCAGCCGGUAAGUCCACAAGGGUUCUGAGAUAUGAGCGGCCUCCUAGAAAUGAGAAUCAACAGG: 0.198 ratio
